Results collected from several papers.
A part holds a random share of what one study measured. Several values in a cell are separate wells, animals, samples, runs or records.
UniProt P24723, sequence (whole entry, looked up): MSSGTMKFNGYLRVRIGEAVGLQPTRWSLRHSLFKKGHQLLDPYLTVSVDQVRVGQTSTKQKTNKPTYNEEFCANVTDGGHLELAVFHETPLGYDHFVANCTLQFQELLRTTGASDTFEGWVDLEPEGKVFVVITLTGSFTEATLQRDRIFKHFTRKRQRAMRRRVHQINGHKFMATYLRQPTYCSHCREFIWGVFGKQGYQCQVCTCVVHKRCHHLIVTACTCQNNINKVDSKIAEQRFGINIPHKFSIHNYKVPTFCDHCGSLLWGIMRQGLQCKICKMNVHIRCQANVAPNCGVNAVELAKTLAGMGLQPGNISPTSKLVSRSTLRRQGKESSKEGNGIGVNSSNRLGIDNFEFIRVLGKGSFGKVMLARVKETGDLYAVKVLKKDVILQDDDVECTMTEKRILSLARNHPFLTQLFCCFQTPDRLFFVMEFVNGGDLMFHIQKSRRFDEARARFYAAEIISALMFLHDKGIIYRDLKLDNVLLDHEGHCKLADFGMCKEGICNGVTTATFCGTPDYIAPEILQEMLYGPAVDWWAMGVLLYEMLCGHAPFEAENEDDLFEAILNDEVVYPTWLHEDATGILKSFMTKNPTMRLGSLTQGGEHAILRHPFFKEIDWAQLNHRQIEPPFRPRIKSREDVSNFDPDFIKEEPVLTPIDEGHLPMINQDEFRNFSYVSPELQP
UniProt Q9NWZ3, sequence (whole entry, looked up): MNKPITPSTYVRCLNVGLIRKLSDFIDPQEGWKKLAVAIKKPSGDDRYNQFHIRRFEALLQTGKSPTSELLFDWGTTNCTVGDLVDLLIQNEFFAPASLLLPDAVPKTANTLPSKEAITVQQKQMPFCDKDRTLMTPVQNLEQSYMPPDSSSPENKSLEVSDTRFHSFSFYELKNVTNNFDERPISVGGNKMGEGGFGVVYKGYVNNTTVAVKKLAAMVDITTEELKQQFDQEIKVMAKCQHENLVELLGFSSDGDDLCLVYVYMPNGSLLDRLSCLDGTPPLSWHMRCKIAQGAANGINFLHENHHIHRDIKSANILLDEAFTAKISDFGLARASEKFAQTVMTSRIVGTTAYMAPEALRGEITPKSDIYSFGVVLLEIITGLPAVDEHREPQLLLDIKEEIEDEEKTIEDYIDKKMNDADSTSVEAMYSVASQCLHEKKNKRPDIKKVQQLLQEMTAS
UniProt P54646, sequence (whole entry, looked up): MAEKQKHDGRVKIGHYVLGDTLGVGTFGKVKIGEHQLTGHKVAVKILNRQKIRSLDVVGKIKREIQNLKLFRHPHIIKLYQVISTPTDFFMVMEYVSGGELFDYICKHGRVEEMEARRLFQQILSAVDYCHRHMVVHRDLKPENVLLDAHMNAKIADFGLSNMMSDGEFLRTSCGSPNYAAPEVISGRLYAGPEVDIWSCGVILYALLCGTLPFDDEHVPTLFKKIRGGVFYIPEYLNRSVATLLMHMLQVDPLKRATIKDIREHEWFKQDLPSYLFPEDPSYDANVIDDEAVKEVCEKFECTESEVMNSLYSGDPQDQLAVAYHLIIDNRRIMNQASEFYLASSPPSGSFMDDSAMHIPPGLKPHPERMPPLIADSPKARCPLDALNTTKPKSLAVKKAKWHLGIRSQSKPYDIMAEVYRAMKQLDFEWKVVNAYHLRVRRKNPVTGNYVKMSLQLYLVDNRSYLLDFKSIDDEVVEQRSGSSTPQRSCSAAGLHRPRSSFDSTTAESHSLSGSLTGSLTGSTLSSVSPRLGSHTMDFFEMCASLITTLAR
UniProt Q96D53, sequence (whole entry, looked up): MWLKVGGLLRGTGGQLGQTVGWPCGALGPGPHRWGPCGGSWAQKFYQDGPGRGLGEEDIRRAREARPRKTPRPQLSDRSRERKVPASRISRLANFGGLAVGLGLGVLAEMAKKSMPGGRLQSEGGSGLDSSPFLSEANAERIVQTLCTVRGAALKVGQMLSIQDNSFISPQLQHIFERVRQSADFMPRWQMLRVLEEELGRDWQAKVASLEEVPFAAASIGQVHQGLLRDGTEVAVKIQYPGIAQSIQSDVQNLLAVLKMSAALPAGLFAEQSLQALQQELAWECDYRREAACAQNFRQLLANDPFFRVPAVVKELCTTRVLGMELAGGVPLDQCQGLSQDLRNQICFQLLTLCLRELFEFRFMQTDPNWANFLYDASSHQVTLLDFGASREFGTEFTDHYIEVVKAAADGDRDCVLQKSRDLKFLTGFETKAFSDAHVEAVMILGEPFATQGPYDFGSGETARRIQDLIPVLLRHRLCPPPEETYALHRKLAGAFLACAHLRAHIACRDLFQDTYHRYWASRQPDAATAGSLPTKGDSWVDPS
UniProt P07949, sequence (whole entry, looked up): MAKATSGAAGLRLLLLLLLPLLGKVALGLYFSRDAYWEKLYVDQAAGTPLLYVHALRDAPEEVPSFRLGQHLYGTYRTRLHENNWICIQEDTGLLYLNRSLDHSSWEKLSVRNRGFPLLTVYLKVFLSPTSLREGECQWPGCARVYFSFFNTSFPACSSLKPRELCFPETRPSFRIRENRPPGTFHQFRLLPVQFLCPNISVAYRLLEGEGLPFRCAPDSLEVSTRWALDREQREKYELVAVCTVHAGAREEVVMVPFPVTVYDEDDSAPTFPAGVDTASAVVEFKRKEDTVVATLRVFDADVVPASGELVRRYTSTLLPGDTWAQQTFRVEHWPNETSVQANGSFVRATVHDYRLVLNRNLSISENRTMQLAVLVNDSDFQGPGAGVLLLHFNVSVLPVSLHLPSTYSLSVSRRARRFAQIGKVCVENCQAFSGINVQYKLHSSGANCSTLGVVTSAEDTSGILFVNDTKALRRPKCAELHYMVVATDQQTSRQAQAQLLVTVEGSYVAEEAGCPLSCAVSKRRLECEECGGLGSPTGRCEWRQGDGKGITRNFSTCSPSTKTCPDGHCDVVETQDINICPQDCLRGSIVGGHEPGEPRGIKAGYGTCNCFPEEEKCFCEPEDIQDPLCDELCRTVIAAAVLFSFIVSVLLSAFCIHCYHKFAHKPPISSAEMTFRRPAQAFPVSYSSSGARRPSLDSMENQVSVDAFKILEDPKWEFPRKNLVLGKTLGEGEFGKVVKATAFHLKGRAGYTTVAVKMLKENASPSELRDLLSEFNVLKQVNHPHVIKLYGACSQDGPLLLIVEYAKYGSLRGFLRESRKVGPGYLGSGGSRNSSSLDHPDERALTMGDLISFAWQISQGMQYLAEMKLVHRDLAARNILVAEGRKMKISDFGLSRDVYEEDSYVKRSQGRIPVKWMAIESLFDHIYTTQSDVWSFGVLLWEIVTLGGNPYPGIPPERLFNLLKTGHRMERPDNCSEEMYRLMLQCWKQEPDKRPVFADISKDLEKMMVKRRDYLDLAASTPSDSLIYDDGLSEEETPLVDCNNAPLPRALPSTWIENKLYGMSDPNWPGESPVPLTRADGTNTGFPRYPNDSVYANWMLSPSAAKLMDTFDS

Set 1 — host: human; medium: microsomes or S9; concentration: 2 µM; time: 0.5 h
SMILES	remaining compound
Cc1c[nH]c(CN2C[C@H]3CC[C@@H]2CN(C(=O)c2ccccc2)C3)c(C)c1=O	> 100%
CC(C)COc1ccc(Cc2cnc(N)nc2N)cc1	18.4%
Cn1c(=O)c(O)c(C(=O)NCc2cccc(F)c2)c(=O)n1C	> 99%
Cc1ccc(CN2CCC(CNC(=O)c3c4c(nc5ccccc35)C(=O)N(C3CCCCC3)C4)C2)cc1 (centres unmarked)	12.6%

Set 2 — effect on: enzyme activity; action: inhibitor; concentration: 0.5 µM; reference: control
Target: Glycogen synthase kinase-3 alpha (GSK3A, Homo sapiens, UniProt P49840)
UniProt P49840, sequence (whole entry, looked up): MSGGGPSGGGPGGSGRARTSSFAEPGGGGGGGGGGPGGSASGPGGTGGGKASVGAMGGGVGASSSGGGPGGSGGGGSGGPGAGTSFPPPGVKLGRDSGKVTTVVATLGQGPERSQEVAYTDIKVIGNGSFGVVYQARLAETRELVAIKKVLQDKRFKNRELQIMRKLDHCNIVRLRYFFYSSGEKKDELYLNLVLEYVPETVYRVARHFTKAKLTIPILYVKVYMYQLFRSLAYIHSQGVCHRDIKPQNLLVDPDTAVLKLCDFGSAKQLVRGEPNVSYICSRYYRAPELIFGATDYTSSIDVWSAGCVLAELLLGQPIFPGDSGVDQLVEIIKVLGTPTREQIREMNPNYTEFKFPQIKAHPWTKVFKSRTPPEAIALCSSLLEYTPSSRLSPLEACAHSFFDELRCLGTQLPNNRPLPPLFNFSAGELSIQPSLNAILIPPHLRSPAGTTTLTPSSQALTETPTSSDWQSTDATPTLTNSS
Structure (SMILES)	remaining activity [%]
Cn1c2ccccc2c2c3c(c4c5ccccc5n(CCC#N)c4c21)CNC3=O	35.6
Oc1ccc(-c2nc(-c3ccncc3)c(-c3ccc(F)cc3)[nH]2)cc1	91.1
COc1ccc(CNC(=O)Nc2ncc([N+](=O)[O-])s2)cc1	13.5
O=C(O)c1ccc2c3c1cccc3c(=O)n1c3ccccc3nc21	87.3
Cc1ccc(NC(=O)c2ccc(CN3CCN(C)CC3)cc2)cc1Nc1nc(-c2cccnc2)cs1	101
Nc1ccc2ncnc(NCCc3ccc(Oc4ccccc4)cc3)c2c1	110
O=c1c2ccccc2[nH]c(=S)n1CCN1CCC(=C(c2ccc(F)cc2)c2ccc(F)cc2)CC1	104
CCOC(=O)c1c(C)[nH]c(/C=C2\C(=O)Nc3ccccc32)c1C	93.5
COc1ccc(OC)c2c(=S)c3ccccc3[nH]c12	104
O=C(CCCc1ccc(-c2ccccc2F)cc1)Nc1ccc(O)cc1	98.6
O=C1NC(=O)C(c2cn(CCCn3ccnc3)c3ccccc23)=C1Nc1ccccc1	10.6
Nc1[nH]nc2nc3ccccc3nc12	91.6
NCCNc1ncc(C(N)=O)c(Nc2cccc(C(F)(F)F)c2)n1	83
CC(C)[C@H](CO)Nc1nc(Nc2cc(N)cc(Cl)c2)c2ncn(C(C)C)c2n1	101
O=C(Nc1cccc(Nc2cc(Nc3cccc(C(F)(F)F)c3)ncn2)c1)C1CC1	101
Cn1sc(=O)n(Cc2ccccc2)c1=O	94.5
C#Cc1cccc(Nc2ncnc3cc(OCCOC)c(OCCOC)cc23)c1	99.3
N#CC(C#N)=C(N)/C(C#N)=C/c1ccc(O)cc1	91.1
COc1cc2ncnc(Nc3ccc(Oc4ccccc4)cc3)c2cc1OC	97
COc1ccc(C(=O)Nc2sc3c(c2C(N)=O)CCCC3)cc1OC	83.6
COc1cc2nccc(Oc3ccc(NC(=S)NC(=O)c4ccccc4C)cc3)c2cc1OC	91.4
OCC(O)CCON=C1C(c2c(O)[nH]c3ccccc23)=Nc2ccccc21 (centres unmarked)	7.31

Set 3 — effect on: cell-free assay; technique: competition with immobilised ligand; concentration: 1 µM
Structure (SMILES): COc1cccc(CNC(=O)c2nc3scc(COCc4ccc(C(=O)O)cc4)c3c(=O)[nH]2)c1
target	remaining binding [%]
COQ8B (Homo sapiens, UniProt Q96D53)	93.8
PRKAA2 (Homo sapiens, UniProt P54646)	70.5
RET (Homo sapiens, UniProt P07949)	72.3
IRAK4 (Homo sapiens, UniProt Q9NWZ3)	85
PRKCH (Homo sapiens, UniProt P24723)	83.7
EGFR (Homo sapiens, UniProt P00533)	69.3

Set 4 — cell line: A-375; concentration: 100 µM; time: 36 h
Compound	viability [%]
COc1nc2ccc(Br)cc2cc1[C@@H](c1ccccc1)[C@@](O)(CCN(C)C)c1cccc2ccccc12	20.7
O=c1c(-c2ccc(O)cc2)coc2cc(O[C@@H]3O[C@H](CO)[C@@H](O)[C@H](O)[C@H]3O)ccc12	93.2
CC(=O)OCC(=O)[C@@]1(O)CC[C@H]2[C@@H]3CCC4=CC(=O)CC[C@]4(C)[C@@]3(F)[C@@H](O)C[C@@]21C	105

Set 5 — organism: Sarcocystis neurona; effect on: parasite growth; concentration: 10 µM; time: 96 h; notes: second screen; reference: untreated
SMILES	log2 fold change
CC(C)(C)NCC(O)COc1cccc2c1CC(O)C(O)C2 (centres unmarked)	0.31
CN(C)CCc1c[nH]c2ccc(Cn3cncn3)cc12	0.35
CN1CCC(=C2c3ccccc3CC(=O)c3sccc32)CC1	0.51
CC(C(=O)O)c1cccc(C(=O)c2ccccc2)c1 (centres unmarked)	0.46

Other studies, line by line
Structure (SMILES)	target or system	test	test system	conditions	how to read	quantity	result
COc1ccc(-c2c(Nc3ccccn3)[nH]c3c(C4=CCCCC4)c(-c4ccccc4)nn3c2=O)cc1	–	–	human, plasma	oral, 200 mg twice daily	–	AUMC(0-tau)	699000 h²·ng/mL and 751000 h²·ng/mL and 710000 h²·ng/mL
C=CC(=O)N1CCN(c2nc(=O)n(-c3c(C)ccnc3C(C)C)c3nc(-c4c(O)cccc4F)c(F)cc23)[C@@H](C)C1	GTPase HRas (HRAS, Homo sapiens, UniProt P01112, G12C)	–	–	–	–	IC50	33 nM
c1ccc2c(-c3nn4c(-c5ccncc5)nnc4s3)c[nH]c2c1	Gaucher fibroblasts	qPCR, refers to: GBA1 mRNA	–	0.5 µM, unit not given	reference: vehicle	mRNA level	0.631 and 1.01 and 0.744
CC(C)(C)c1cnc(CSc2cnc(NC(=O)C3CCNCC3)s2)o1	HH	trypan blue exclusion	–	10 µM, 48 h	reference: untreated	viability	0.782% and 0.729% and 3.14%
CC(C)n1cnc(-c2ccc(F)cc2)c1-c1ncc(C(=O)Nc2ccc(N3CCN(C)CC3)cc2)[nH]1	–	–	human, idiopathic pulmonary fibrosis	30 mg once daily, trial, treatment-emergent	–	patients with Gamma-glutamyltransferase increased	0%

For quick reference, copied from above (set 1):
SMILES	remaining compound
Cc1c[nH]c(CN2C[C@H]3CC[C@@H]2CN(C(=O)c2ccccc2)C3)c(C)c1=O	> 100%
Cn1c(=O)c(O)c(C(=O)NCc2cccc(F)c2)c(=O)n1C	> 99%
Cc1ccc(CN2CCC(CNC(=O)c3c4c(nc5ccccc35)C(=O)N(C3CCCCC3)C4)C2)cc1 (centres unmarked)	12.6%
